{"data": "Measurements gathered from unrelated publications", "note": "Numbers after ± are the reported error."}
{"Compound": "COc1cccc(OC)c1-c1cc(C(=O)NC2(C(=O)O)C3CC4CC(C3)CC2C4)nn1-c1ccc(C(=O)N(C)CCCN(C)C(=O)[C@H](CCCCNC(=O)[C@H](CC(C)C)NC(=O)C2OC2C(=O)O)NC(=O)CN2CCN(CC(=O)[O-])CCN(CC(=O)[O-])CCN(CC(=O)[O-])CC2)cc1C(C)C.[177Lu+3] (mixture of isomers)", "test system": "mouse, HT-29 xenograft, lung", "conditions": "24 h post injection", "endpoint": "tissue uptake", "value": "1.7 %ID/g"}
{"Compound": "C=C(NC(=O)c1csc(-c2nc3c(cc2O)-c2nc(cs2)C(=O)NC(C(C)O)C(=O)NC(=C(C)OC)c2nc(cs2)C(=O)NC2c4nc(cs4)C(=O)NC(COC(=O)c4c5c6c(cccc6n4O)COC(=O)C(OC4CC(C)(O)C(N(C)C)C(C)O4)C2OC5)c2nc-3cs2)n1)C(N)=O (stereo not drawn)", "test system": "ICR mice, Streptococcus pneumoniae ATCC 49169 infected, immunocompromised, blood", "conditions": "intravenous, 4 mg/kg/day three times daily", "endpoint": "Cmax", "value": "110 ng/mL"}
{"Compound": "O=C(Nc1cnccc1-c1ccc([18F])nc1)c1ccnc(NC(=O)C2CC2)c1", "test system": "mice, transgenic, GSK-3β, early-stage, eyes", "conditions": "intravenous, dose not given, 120 min", "endpoint": "SUV", "value": 0.085}
{"Compound": "CC(C)(O)c1ncc([S@](N)(=O)=NC(=O)Nc2c3c(cc4c2CCC4)CCC3)s1", "test system": "healthy human subjects", "conditions": "oral, 30 mg, capsule", "endpoint": "subjects with cardiac adverse events", "value": "17%"}
{"Compound": "C=CC(=O)Nc1cc(Nc2nccc(-c3c[nH]c4ccccc34)n2)c(OC)cc1N(C)CCN(C)C", "test": "storage stability", "test system": "human dried blood spots", "conditions": "24 h, on ice, LLOQ level", "endpoint": "recovery", "value": "79.4%"}
{"Compound": "CCCCN1C(=O)c2cccc3c(NCCN4CCOCC4)ccc(c23)C1=O", "test system": "water", "conditions": "pH 6.0", "endpoint": "fluorescence lifetime", "value": "6.9 ns"}
{"Compound": "CC(=O)N([O-])CCCCCNC(=O)CCC(=O)N([O-])CCCCCNC(=O)CCC(=O)N([O-])CCCCCN.[89Zr+4]", "test": "radio-TLC", "test system": "aqueous buffer", "conditions": "3 d, pH 5, 37 °C, 89Zr-labelled complex, together with: DTPA 1000-fold excess", "endpoint": "intact complex", "value": "79.8 ± 2.9%"}
{"Compound": "COc1cccc(OC)c1-c1cc(C(=O)NC2(C(=O)O)C3CC4CC(C3)CC2C4)nn1-c1ccc(C(=O)NCCNC(=O)[C@H](CCCCNC(=O)[C@H](CC(C)C)NC(=O)C2OC2C(=O)O)NC(=O)CN2CCN(CC(=O)[O-])CCN(CC(=O)[O-])CCN(CC(=O)[O-])CC2)cc1C(C)C.[177Lu+3] (mixture of isomers)", "test system": "mouse HT-29 xenograft", "conditions": "4 h, biodistribution", "how to read": "relative to: tumour over small intestine", "endpoint": "tumour-to-small intestine ratio", "value": 13.1}
{"Compound": "O=C([O-])CN1CCN(CC(=O)[O-])CCN(CC(=O)NCC2CCC(C(=O)NC(Cc3ccc4ccccc4c3)C(=O)NCCCCC(NC(=O)NC(CCC(=O)O)C(=O)O)C(=O)O)CC2)CCN(CC(=O)[O-])CC1.[68Ga+3] (stereo not drawn)", "test": "micro-PET/CT", "test system": "mouse 22Rv1 xenograft, tumour", "conditions": "1 h post-injection", "endpoint": "maximum tumour uptake", "value": "8.73 ± 1.03 %ID/g"}
{"Compound": "CCCC[C@H](NC(=O)CNC(=O)CNC(=O)[C@H](CCCCNC(=O)[C@H](CC(=O)O)NC(=O)C(C)c1ccc(CC(C)C)cc1)NC(=O)CN1CCN(CC(=O)O)CCN(CC(=O)O)CCN(CC(=O)O)CC1)C(=O)N[C@H]1CC(=O)NCCCC[C@@H](C(N)=O)NC(=O)[C@H](Cc2c[nH]c3ccccc23)NC(=O)[C@H](CCCNC(=N)N)NC(=O)[C@@H](Cc2ccccc2)NC(=O)[C@H](Cc2c[nH]cn2)NC1=O (stereo partly drawn) [lutetium-177 labelled]", "test system": "C57 mouse, tumor", "conditions": "intravenous, 2 h, together with: 10 µg NDP-MSH co-injection", "endpoint": "tissue uptake", "value": "2.69 ± 0.54 %ID/g"}
{"Compound": "Cc1cc(NC(=O)C(=O)N2C[C@@H](C)CC[C@@H]2c2ccc3scnc3c2)cnc1N", "test system": "mouse, brain and plasma", "how to read": "relative to: brain over plasma", "endpoint": "tissue/plasma ratio", "value": "~0.15"}
{"Compound": "O=C([O-])CN1CCN(CC(=O)[O-])CCN(C(CO)C(O)CO)CCN(CC(=O)[O-])CC1.[Dy+3] (stereo not drawn)", "test system": "cynomolgus monkey, skin", "conditions": "dose not given, day 5", "endpoint": "lanthanide tissue concentration", "value": "0.37 ± 0.14 nmol/g"}
{"note": "Some of these lines once more:"}
{"Compound": "COc1cccc(OC)c1-c1cc(C(=O)NC2(C(=O)O)C3CC4CC(C3)CC2C4)nn1-c1ccc(C(=O)NCCNC(=O)[C@H](CCCCNC(=O)[C@H](CC(C)C)NC(=O)C2OC2C(=O)O)NC(=O)CN2CCN(CC(=O)[O-])CCN(CC(=O)[O-])CCN(CC(=O)[O-])CC2)cc1C(C)C.[177Lu+3] (mixture of isomers)", "test system": "mouse HT-29 xenograft", "conditions": "4 h, biodistribution", "how to read": "relative to: tumour over small intestine", "endpoint": "tumour-to-small intestine ratio", "value": 13.1}
{"Compound": "O=C([O-])CN1CCN(CC(=O)[O-])CCN(CC(=O)NCC2CCC(C(=O)NC(Cc3ccc4ccccc4c3)C(=O)NCCCCC(NC(=O)NC(CCC(=O)O)C(=O)O)C(=O)O)CC2)CCN(CC(=O)[O-])CC1.[68Ga+3] (stereo not drawn)", "test": "micro-PET/CT", "test system": "mouse 22Rv1 xenograft, tumour", "conditions": "1 h post-injection", "endpoint": "maximum tumour uptake", "value": "8.73 ± 1.03 %ID/g"}
